Experimental data gathered from unrelated publications.
Parts stem from different laboratories: compare values within a part only. Changes are numbered by the printed parent chain.

Sample 1 — observed: binding; method: phage display NGS; form: peptide; concentration: concentration not given; notes: panning round 4; relative to: input library; quantity: enrichment fold change
Target: UDP-N-acetylglucosamine--peptide N-acetylglucosaminyltransferase 110 kDa subunit (OGT, Homo sapiens, UniProt O15294)
Residues (O15294 1-1046): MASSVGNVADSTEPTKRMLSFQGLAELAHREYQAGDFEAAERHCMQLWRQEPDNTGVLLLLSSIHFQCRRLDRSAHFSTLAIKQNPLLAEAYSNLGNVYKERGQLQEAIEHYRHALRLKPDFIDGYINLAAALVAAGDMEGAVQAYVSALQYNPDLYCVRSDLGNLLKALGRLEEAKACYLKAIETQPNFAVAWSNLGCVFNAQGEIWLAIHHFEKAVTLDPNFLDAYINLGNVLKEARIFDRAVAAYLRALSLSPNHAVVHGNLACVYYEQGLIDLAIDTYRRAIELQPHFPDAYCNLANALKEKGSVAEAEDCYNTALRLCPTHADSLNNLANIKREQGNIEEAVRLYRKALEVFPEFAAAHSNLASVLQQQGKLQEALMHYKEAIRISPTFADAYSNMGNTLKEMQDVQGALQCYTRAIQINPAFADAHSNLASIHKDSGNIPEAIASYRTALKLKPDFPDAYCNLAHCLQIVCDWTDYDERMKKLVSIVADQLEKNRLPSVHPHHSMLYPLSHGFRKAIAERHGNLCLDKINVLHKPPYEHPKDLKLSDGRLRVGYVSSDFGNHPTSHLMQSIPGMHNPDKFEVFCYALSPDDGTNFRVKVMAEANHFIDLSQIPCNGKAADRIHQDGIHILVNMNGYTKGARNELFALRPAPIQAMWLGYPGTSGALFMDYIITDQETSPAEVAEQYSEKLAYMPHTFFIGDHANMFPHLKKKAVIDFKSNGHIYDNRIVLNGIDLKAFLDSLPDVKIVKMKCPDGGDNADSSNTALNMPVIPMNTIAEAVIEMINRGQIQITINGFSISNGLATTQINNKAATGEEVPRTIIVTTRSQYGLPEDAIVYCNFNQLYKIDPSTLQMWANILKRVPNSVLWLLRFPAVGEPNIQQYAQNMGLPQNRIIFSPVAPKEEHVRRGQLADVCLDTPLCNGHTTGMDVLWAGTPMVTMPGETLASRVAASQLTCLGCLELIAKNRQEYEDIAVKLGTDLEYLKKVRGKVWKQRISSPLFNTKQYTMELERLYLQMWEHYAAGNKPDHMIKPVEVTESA
GPFQPFYQIYFDTLP: 1.56
QDFKPMYQIKIRSHA: 2.36
FSEYQPQYQISYNKF: 1.96
DMMAFYPKYSIAYSR: 1.76
NSPFAPKYEITTAWH: 1.51
NFYPPVYAIKITPSR: 1.65
NVVRTNFMPMYLIEI: 1.84

Sample 2 — target: CCND1, cyclin fold, Cln2 fusion (human); method: yeast growth competition, sequencing; sample: yeast; notes: weak parent motif; relative to: not given; direction: higher = stronger binding; quantity: normalised enrichment score
Starting sequence: viral docking peptide; CKVKRKLFGSENI; partner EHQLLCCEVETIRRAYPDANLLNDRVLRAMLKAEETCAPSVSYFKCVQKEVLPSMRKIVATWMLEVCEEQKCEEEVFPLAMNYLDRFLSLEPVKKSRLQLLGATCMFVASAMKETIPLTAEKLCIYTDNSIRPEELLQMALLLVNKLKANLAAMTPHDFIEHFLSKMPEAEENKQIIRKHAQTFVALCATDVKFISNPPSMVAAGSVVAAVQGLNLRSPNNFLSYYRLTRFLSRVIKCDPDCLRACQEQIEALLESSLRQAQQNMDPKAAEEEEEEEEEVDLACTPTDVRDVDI
CKVKRKLFASENI [G9A]: 0.851
CKVARKLFGSENI [K4A]: 0.78
CKVKKKLLGSENI [R5K F8L]: 0.0671
CKVKKKLFGSENI [R5K]: -0.428
CKVKRKLFGSEAI [N12A]: 0.363
CKVKAKLFGSENI [R5A]: 0.0553
CKVKAKAFGSENI [R5A L7A]: 0.288
CKVKRALFGSENI [K6A]: 0.536
AKVKRKLFGSENI [C1A]: 0.938
CKVKRKLFGSENA [I13A]: 0.825

Sample 3 — target: vanadate, free oxyanion; method: microfluidic competitive inhibition; sample: in vitro, cell-free expressed; concentration: not given; direction: lower = stronger binding; quantity: oxyanion analog dissociation constant
Notes: derived from inhibition constants, unchanged parent 676 nM
Starting sequence: PafA, mature enzyme, eGFP fusion (Elizabethkingia meningoseptica, UniProt Q9KJX5); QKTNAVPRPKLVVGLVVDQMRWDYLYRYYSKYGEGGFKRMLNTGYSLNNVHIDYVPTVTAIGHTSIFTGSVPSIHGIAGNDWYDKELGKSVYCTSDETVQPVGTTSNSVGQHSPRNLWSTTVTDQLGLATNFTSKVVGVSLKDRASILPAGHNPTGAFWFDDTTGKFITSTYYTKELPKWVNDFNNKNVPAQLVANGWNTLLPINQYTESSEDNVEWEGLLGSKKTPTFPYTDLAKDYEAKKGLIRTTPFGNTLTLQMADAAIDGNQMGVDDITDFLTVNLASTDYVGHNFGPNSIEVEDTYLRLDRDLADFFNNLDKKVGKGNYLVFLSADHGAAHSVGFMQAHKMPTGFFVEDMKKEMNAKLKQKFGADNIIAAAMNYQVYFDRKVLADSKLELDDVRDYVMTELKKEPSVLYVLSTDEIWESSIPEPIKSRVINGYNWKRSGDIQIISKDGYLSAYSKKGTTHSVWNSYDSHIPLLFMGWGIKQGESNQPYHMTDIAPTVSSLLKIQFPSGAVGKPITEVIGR
D398G: 642 nM
K508G: 816 nM
E406V: 738 nM
I296G: 1.02 µM
D124V: 5.11 µM
S73G: 492 nM
G525V: 687 nM
G334A: 896 nM
V58A: 5.74 µM
G514V: 1.27 µM
M356V: 777 nM
T497V: 766 nM
Y302G: 4.87 µM
L202V: 803 nM
V16G: 676 nM
A310V: 653 nM
T130G: 819 nM
L329G: 1.77 µM
F67V: 402 nM
G44A: 1.36 µM
F368V: 849 nM
G165V: 1.59 µM
G517V: 1.11 µM
V403G: 973 nM
T226G: 829 nM

Sample 4 — method: RNA Bind-n-Seq; form: RNA; sample: in vitro; concentration: not given; notes: RNA with constant flanks, ends assumed; relative to: input RNA pool; direction: higher = stronger binding; quantity: bound/input enrichment
Target: RING finger protein unkempt homolog, zinc fingers 1-6, GST-SBP tag (UNK, Homo sapiens, UniProt Q9C0B0, residues 30-357)
Sequence of UniProt Q9C0B0 (30-357, looked up): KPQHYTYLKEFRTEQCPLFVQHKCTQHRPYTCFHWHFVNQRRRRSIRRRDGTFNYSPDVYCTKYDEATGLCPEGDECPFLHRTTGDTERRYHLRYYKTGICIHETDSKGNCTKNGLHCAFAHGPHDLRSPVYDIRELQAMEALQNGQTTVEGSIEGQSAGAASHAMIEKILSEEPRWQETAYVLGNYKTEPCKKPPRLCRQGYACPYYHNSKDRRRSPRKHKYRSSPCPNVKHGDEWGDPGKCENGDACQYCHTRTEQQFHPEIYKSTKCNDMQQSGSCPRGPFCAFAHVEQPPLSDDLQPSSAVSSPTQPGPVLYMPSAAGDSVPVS
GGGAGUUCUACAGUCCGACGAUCCAGACUGGCAACUGUUUUGUAGCAAGAGCCAUAGGUAGCCUUACUACUUGGGCCUCUUUCCCGUUUUGAAUUAUUUCUAAGCCUUUUGGGUAUGAUUAGAGUGAAAAUGGCAGCCAGCAACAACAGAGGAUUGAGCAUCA: 0.551 ratio
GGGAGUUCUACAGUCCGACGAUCACAAAGCACUUCAUCUAUUUUUACUUGGGUCAAGUUGCAAUCCUCCUCUUCAAGUCGGGCCCGGUGGCCGAGGCGAAGGUGUCCGUGGCGGCGGCAGCGAUGGCAAGCAGGCGGCGUUGCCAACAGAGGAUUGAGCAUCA: 0.268 ratio
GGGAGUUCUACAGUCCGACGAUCUAUCUUUACAAGUACCUGUGGAGGCUGAUGGUGAAGGACAUGUCCAAGAUAUACAGCUUGUACCGCACCCUCUUGGCUCAUAAAAAACUACAUAUAAGAAAUUUUGCAGCCGAAAGUUUUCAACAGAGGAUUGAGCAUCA: 0.247 ratio
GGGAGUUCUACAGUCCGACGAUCUGGCAGAUAUUCAAAACGUCAGCAACCAAAGGCACCGGCCUUGAUGAGGCAAUGGAAUGGUCCGUUGAAACAUUAAAAAGCAGACAGUAAUUCAGUCCAUUCUUCUCCCCUGAAAUGAAGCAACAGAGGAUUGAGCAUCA: 0.179 ratio
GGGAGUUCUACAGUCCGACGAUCUGGACAGAAAAGAUAAUGAAGCAGACCGAAGUGCUGUUGCAGCCAAAUCCAAAUGCCAGGACCGAAGAAUUUGUUUAUGAGAAACUGGAUAGAAAAGCACCAAGUCGUAUAAACAACCCGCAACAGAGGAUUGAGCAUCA: 0.286 ratio
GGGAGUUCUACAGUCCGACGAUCCACUCCCUCCCUCUAACAGCAGGCUGUGUGGGUUUCAAUUCCCAUCCUCCCCACCCUGGCCCGGUGUCGUCCACCCUGUAUCCUAUCAUGUGUCUGUGUGUGGGGGGGUUCUGUACUAAUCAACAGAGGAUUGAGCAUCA: 0.24 ratio
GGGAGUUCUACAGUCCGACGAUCACACCUUUGUUUCUUGCUGCCCGAGAGGGAAGUUAUGAAGCGGCCAAAAUCCUGUCCGACCAUUUUGCCAACCGGGACAUCACUGACCACAUGGACCGCCUUCCCCGGGAUGUGGCUCGGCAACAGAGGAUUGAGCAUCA: 0.116 ratio
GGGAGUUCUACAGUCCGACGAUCUCCCCUUAUGAUCAGGCGGCUUGGAUUUUGAAAGCACGGGCGCUGACAGAGAUGGUGUACACCGAUGAAAUUGAUGUGGACCAGGAAGGAAUUGCUGAAAUGAUCCUGGAUGAAAAUGCUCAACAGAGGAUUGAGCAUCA: 0.194 ratio

Excerpt of the above (sample 1):
NFYPPVYAIKITPSR: 1.65
GPFQPFYQIYFDTLP: 1.56
DMMAFYPKYSIAYSR: 1.76
NVVRTNFMPMYLIEI: 1.84
FSEYQPQYQISYNKF: 1.96
QDFKPMYQIKIRSHA: 2.36
NSPFAPKYEITTAWH: 1.51
